Experimental data from different studies.
Each line is one published result; not all experiments were run side by side.
Target: Cyclin-dependent kinase-like 1 (CDKL1, Homo sapiens, UniProt Q00532)

Compound	assay	setting	scale	quantity	value
CNC(=O)C[C@H](Cc1ccc(C#N)cc1)NC(=O)c1cc(-c2ccc(CN[C@H](C)c3ccc(C)cc3)o2)ccc1Cl	enzyme activity, inhibitor	1 µM		activity vs control	103%
C=CC(=O)N1CCc2ccc(-n3c(=O)ccc4cnc5ccc(-c6cnn(C)c6)cc5c43)cc21	KINOMEscan	1 µM	reference: DMSO control	remaining binding	68%
CC(C)=CC1OC(C)(C)C2C=C3C(=O)C(Cl)=CC(O)C3C3C(O)C4OC4C(=O)C132 (stereo not drawn)	cell-free assay, competition with immobilised ligand	10 µM		remaining binding	70%
CN1CC[C@@H](COc2cnc(C#N)cc2-c2ccn3nc(NC(=O)C4CC4)cc3c2)C1	enzyme activity, inhibitor	1 µM		inhibition	19%
C=CC(=O)N1CCCC(n2c(=O)c3ncccc3n(Cc3ccc(Oc4ccccc4)cc3)c2=O)C1 (stereo not drawn)	cell-free assay, competition with immobilised ligand	1 µM		remaining binding	89%
COc1cc(Nc2nccc(-c3cnn4nc(OC)ccc34)n2)cc(C(F)(F)F)c1	binding, competition with immobilised ligand	1 µM		remaining binding	71%
COc1c(Cl)cccc1Nc1c(-c2ccncc2C#C[C@@]2(C)CCCN2C(=O)/C=C/CN(C)C)[nH]c2c1C(=O)NCC2	binding, competition with immobilised ligand	3 µM		remaining binding	82%
Cc1cnc2nc1Nc1cccc(c1)COC/C=C/COCc1cc(ccc1OCCN1CCOCC1)N2	binding	0.1 µM		remaining binding	89%
CNC1C[S+]2CC[S+]3CC[S+](C1)[Ru-4]321([N]=C=S)[n]2c3ccc(OC)cc3c3c4c(c5cc(F)c[n+]1c5c32)C(=O)NC4=O (stereo not drawn)	KinomeScan	0.1 µM	reference: untreated	remaining binding	100%
Cc1ccc(-c2c(/C=C(\C#N)C(=O)NC(C)C)n(CCCO)c3ncnc(N)c23)cc1	cell-free assay, competition with immobilised ligand	1 µM		remaining binding	100%
CCN1CCN(Cc2ccc(C(=O)Nc3ccc(C)c(NCc4cnc5[nH]ccc5c4OC)c3)cc2C(F)(F)F)CC1	binding, competition with immobilised ligand	1 µM		remaining binding	72%
Nc1ncc2c(n1)-c1c([nH]c3ccc(C4=CCOCC4)cc13)CCC2	binding, competition with immobilised ligand	1 µM		remaining binding	98%
O=C(NCC1CCOCC1)c1n[nH]cc1NC(=O)c1c(F)cccc1F	scanMAX	1 µM	reference: control	remaining binding	93%
CNC(=O)C1CCN(c2cc(C)c(F)cc2NC(=O)c2ccc(-c3cc(O)ccc3C)c(C)c2)CC1	binding, competition with immobilised ligand	1 µM		remaining binding	72%
O=C(Cc1ccc(OCc2ccccc2)cc1)NC1(C(=O)O)CCN(C(=O)c2ccc(-c3cccc(Cl)c3)cc2)CC1	enzyme activity, inhibitor	10 µM		activity vs control	94%

Repeated from above:
Compound	assay	setting	scale	quantity	value
C=CC(=O)N1CCCC(n2c(=O)c3ncccc3n(Cc3ccc(Oc4ccccc4)cc3)c2=O)C1 (stereo not drawn)	cell-free assay, competition with immobilised ligand	1 µM		remaining binding	89%
COc1cc(Nc2nccc(-c3cnn4nc(OC)ccc34)n2)cc(C(F)(F)F)c1	binding, competition with immobilised ligand	1 µM		remaining binding	71%
